# Results from different studies.
# Each numbered part is a random draw from the data of one study; scales do not carry over between parts.

# Set 1 — technique: aptamer microarray, sandwich; form: DNA with 2'F-ANA; sample: in vitro; concentration: 200 nM; together with: Cy3 exosite-II aptamer, 400 nM; reading: higher = stronger binding; sequence: GGTTGGTGTGGTTGG
# Target: Prothrombin, mature alpha-thrombin (F2, Homo sapiens, UniProt P00734)
# Notes: whole 15-mer aptamer, many near background
Modification,mean fluorescence intensity [a.u.]
2'F-ANA at 3 4 9 11 12,769
2'F-ANA at 1 3 5 7 8 10 14 15,45.9
2'F-ANA at 2 4 5 9 12 13,83.2
2'F-ANA at 3 4 6 8 9 10 12,287
2'F-ANA at 2 5 6 9 10 11 13,48
2'F-ANA at 1 2 6 7 8 10 12 15,65.6
2'F-ANA at 3 7 9 10 11 14 15,400
2'F-ANA at 2 3 5 9 10 11 12 13 14 15,51.1
2'F-ANA at 2 3 5 6 10 11 12 15,83.1
2'F-ANA at 1 4 6 7 9 12 14,55.1
2'F-ANA at 2 4 7 8 9 10 12 13 14 15,64.6
2'F-ANA at 2 9 10 11 12 13 14 15,87.9
2'F-ANA at 4 5 6 8 11 12 14,46.1
2'F-ANA at 1 2 3 4 6 7 8 9 10 11 12 14,70.5
2'F-ANA at 1 3 4 8 12,486
2'F-ANA at 1 3 4 5 6 7 11 12 15,88.8
2'F-ANA at 2 6 7 8 14 15,156
2'F-ANA at 1 6 7 10 11 14 15,53.7
2'F-ANA at 2 4 6 7 8 10 12 13 14,82.7

# Set 2 — technique: RNA Bind-n-Seq; form: RNA; sample: in vitro; concentration: 200 nM; notes: whole 134-nt RNA, ends assumed; together with: 150 mM KCl; baseline: input library; reading: higher = stronger binding
# Target: Ras GTPase-activating protein-binding protein 1, full length (G3BP1, Homo sapiens, UniProt Q13283)
# Chain of UniProt Q13283 (whole entry, looked up): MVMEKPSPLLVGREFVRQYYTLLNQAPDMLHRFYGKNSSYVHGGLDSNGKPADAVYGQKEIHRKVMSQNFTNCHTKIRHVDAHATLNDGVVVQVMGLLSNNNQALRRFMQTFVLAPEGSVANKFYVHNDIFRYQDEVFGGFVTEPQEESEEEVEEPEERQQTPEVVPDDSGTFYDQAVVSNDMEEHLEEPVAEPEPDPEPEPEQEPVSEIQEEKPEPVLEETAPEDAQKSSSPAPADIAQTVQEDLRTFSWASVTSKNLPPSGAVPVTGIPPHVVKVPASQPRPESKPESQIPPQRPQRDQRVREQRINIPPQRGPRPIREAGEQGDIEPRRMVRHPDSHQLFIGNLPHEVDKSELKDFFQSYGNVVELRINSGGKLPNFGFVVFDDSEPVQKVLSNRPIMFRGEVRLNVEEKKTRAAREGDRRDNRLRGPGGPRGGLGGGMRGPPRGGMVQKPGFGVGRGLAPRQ
# All sequences stand within: GGGAGUUCUACAGUCCGACGAUC … UGGAAUUCUCGGGUGUCAAGG
Sequence,log2 enrichment
CUGUGCUACACAUCGUAUGUACCGAAUCGGGGAAAAAAAGGAAAAAAAGGGAAAAAAAGGGAAAGUAUUAUGUUACGCCGUUCGGAUCUG,-0.742
ACCAUGCAGGUGGGCCUCUUUGGGAAGUGGGGCAAGGGGGGGAUAGGGAGGGGGGUAACACUUUGGGAACAGGUGGUCCCAGGUCGUUUC,1.12
GUGCUACACAUCGUAUGUACCGAAUCGGGGUUUUUUUGGGGAAAAAAAGGGGUUUUUUUGGGGAAAGUAUUAUGUUACGCCGUUCGGAUC,-0.274
AGUCCUGUGCUACACAUCGUAUGUACCGAAUCAAAUUUUUAAACCCAAACCCCCAAAAAAGUAUUAUGUUACGCCGUUCGGAUCUGCACU,-0.484
AAGUCCUGUGCUACACAUCGUAUGUACCGAAUCGGAAAAAAAGGUUUGGUUUUUGGAAAGUAUUAUGUUACGCCGUUCGGAUCUGCACUU,-1.41
CAAGUCCUGUGCUACACAUCGUAUGUACCGAAUCGGGUUUGGGGUUUGGGUUUGGGAAAGUAUUAUGUUACGCCGUUCGGAUCUGCACUU,0.498
CCUCAAGUCCUGUGCUACACAUCGUAUGUACCGAAUCGGGGCGGCGGGGCGGGAAAGUAUUAUGUUACGCCGUUCGGAUCUGCACUUCCA,0.821
UAACUUUAGAGGAGGAUCUGAUGGAUAUGGCCGUGGACGUGGAUUUGGGGAUGGCUAUAAUGGGUAUGGAGGAGGACCUGGAGGUGGCAA,0.383
CCUCAAGUCCUGUGCUACACAUCGUAUGUACCGAAUCGGUUUUUGGUGGAGGAAAGUAUUAUGUUACGCCGUUCGGAUCUGCACUUCCAG,0.0204

# Set 3 — technique: protein binding microarray; form: double-stranded DNA, one strand shown; sample: in vitro; concentration: not given; baseline: not given; reading: higher = stronger binding
# Target: Histone acetyltransferase KAT6A, winged helix 1, GST fusion (KAT6A, Homo sapiens, UniProt Q92794, residues 1-85)
# Notes: 8-mer, flanks averaged, mean of 2 arrays, mostly near background
# Residues (chain): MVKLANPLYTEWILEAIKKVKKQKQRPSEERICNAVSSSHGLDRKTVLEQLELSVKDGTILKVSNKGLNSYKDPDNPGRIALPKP
Sequence,E-score
CGCCGGAG,0.297
ATAAGCCC,0.0182
CATTGAGC,0.0149
ACGATAAA,0.0393
CAATTAGC,0.0725
AGGTCACC,-0.0681
CACGGCAA,0.362
CAAGACCG,0.176
ACCCCGGT,0.0816
GACCCATC,-0.0101
TACCTAAA,-0.00813
AGCTCACA,-0.271
CGAGCGAC,0.0589
ACTCACTG,-0.185
AATCCCTC,-0.0666
ATTAATAC,-0.0466
AGTGGCTG,-0.0616
CTGGGAAA,-0.156
TAGGGACA,-0.0597
CCTATTAC,-0.0933
CTCCCGAC,0.268
CCAAGCAA,-0.223

# Set 4 — technique: universal PBM; form: double-stranded DNA, one strand shown; sample: in vitro; concentration: not given; reading: higher = stronger binding
# Target: Sal-like protein 4, full length isoform B (SALL4, Homo sapiens, UniProt Q9UJQ4-2, residues 1-616)
# Notes: 8-mer, flanks averaged, mean of replicates
Sequence,E-score
CGGGGGAC,-0.355
AGCTCACT,-0.211
CCTACGGA,-0.164
GCGCGAAC,-0.303
CCCGAGAA,-0.19
ACCCCGCT,-0.267
CATGTCTC,0.0533
GCGTCCCC,-0.296
CTTGTCGA,0.0922
CCCTTACA,0.0921
CAGGCGAA,-0.104
GCCTACAA,0.0291
GGCCTACA,-0.132
CTGACCAC,-0.129
ACACGTGT,0.0762
CCGTTAGA,0.0115
ATAAAAGG,0.185

# Set 5 — technique: RNA Bind-n-Seq; form: RNA; sample: in vitro; concentration: 365 nM; baseline: no-protein control; reading: higher = stronger binding
# Target: RNA binding protein fox-1 homolog 2, RRM domain, GST-SBP tag (RBFOX2, Homo sapiens, UniProt O43251-10, residues 100-194)
# Notes: natural RNA segment, single round, ends assumed
# All sequences stand within: GGGAGUUCUACAGUCCGACGAUC … UGGAAUUCUCGGGUGCCAA
# Residues (chain): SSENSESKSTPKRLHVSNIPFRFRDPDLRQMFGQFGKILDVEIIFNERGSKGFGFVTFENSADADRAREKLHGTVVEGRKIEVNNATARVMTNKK
Sequence,RBNS enrichment (R)
UUCUGCAUCCACCUAUGGCAUCUGGGUUUGCUGUCACCCUACUUUGUUGUGGCCUUCCUGGUGUAAGAGUCUGUGUUCCUUGGUCACCUCUCCUGAUUCAGACCAGCUCC,0.948
GGUACCUCCCUCCCUGAAUUCCUGAGCCAGCAACUCUUACUGGCCCCUCCAUAGGGUCUUGCUGCCAGGGACAGGGAUGCUUUCCAGCCUGCAGCAACAGAACACUUGAC,0.329
CUCUGCAGAGACUGCCUGGUCCUCAUUGUACUUUGGUGGCUCAACUGAAUAAAGCCUUGUGGGAAGCCUCUGUAGGCUCCCGACCCCGGGAAGAAACUGGAACCGGUCCA,0.385
CAUUCCAGAGAAAUGGCCAGACUUGCCCCUACCCUUUUGCCCCUGGUGUAGCUGCCUCACAUGAGGUUAUUGCAAGAGUUCCCCUUGCAAUACCCUUUGUGCCCUCAAGA,0.543
CACUCACUCCUGUUCCCUUAUUCUUCAUUCCCAGUAAUUCCCUACCAAAUGGUGGGGACCCUGAGCCCAGCUCUGACCAGGUAGAGCCUGUGCAGCCUGGGCUGCUGUCA,0.335
UCUUUCCUCCCUAAUUCCAAAAACCACAAAGGUUUCCCUGAGUGCAGAGAGAUCAGCCCACCCUGCAGACCCACAGAGAAGAUUCAGAGUGUGUGUGAGAGUGAGUGAGU,0.236
GGGAAAGCAAAGACCAUAAGCACCAUUUUGCAGUUCUAUCUUUUUUUCCAGUUAGCCUAUGUAACCAAGUAUGCAUAACAUAACAGUAUUACCCUUUCACUCUUCUCACA,0.523
GUCUGUAAAUUUGCAAAUUUUUCCUUUUAUAUGUGUGUUAGAAAAAUAAAGUGUUAUUGUUCCAAAAGCAUGAUGCUGUGUUCCAUUCAUUAUGAAGGGACAGACCUGGG,1.53

# Repeated from above (set 5):
Sequence,RBNS enrichment (R)
UUCUGCAUCCACCUAUGGCAUCUGGGUUUGCUGUCACCCUACUUUGUUGUGGCCUUCCUGGUGUAAGAGUCUGUGUUCCUUGGUCACCUCUCCUGAUUCAGACCAGCUCC,0.948
GGUACCUCCCUCCCUGAAUUCCUGAGCCAGCAACUCUUACUGGCCCCUCCAUAGGGUCUUGCUGCCAGGGACAGGGAUGCUUUCCAGCCUGCAGCAACAGAACACUUGAC,0.329
CUCUGCAGAGACUGCCUGGUCCUCAUUGUACUUUGGUGGCUCAACUGAAUAAAGCCUUGUGGGAAGCCUCUGUAGGCUCCCGACCCCGGGAAGAAACUGGAACCGGUCCA,0.385
CAUUCCAGAGAAAUGGCCAGACUUGCCCCUACCCUUUUGCCCCUGGUGUAGCUGCCUCACAUGAGGUUAUUGCAAGAGUUCCCCUUGCAAUACCCUUUGUGCCCUCAAGA,0.543
CACUCACUCCUGUUCCCUUAUUCUUCAUUCCCAGUAAUUCCCUACCAAAUGGUGGGGACCCUGAGCCCAGCUCUGACCAGGUAGAGCCUGUGCAGCCUGGGCUGCUGUCA,0.335
UCUUUCCUCCCUAAUUCCAAAAACCACAAAGGUUUCCCUGAGUGCAGAGAGAUCAGCCCACCCUGCAGACCCACAGAGAAGAUUCAGAGUGUGUGUGAGAGUGAGUGAGU,0.236
GGGAAAGCAAAGACCAUAAGCACCAUUUUGCAGUUCUAUCUUUUUUUCCAGUUAGCCUAUGUAACCAAGUAUGCAUAACAUAACAGUAUUACCCUUUCACUCUUCUCACA,0.523
GUCUGUAAAUUUGCAAAUUUUUCCUUUUAUAUGUGUGUUAGAAAAAUAAAGUGUUAUUGUUCCAAAAGCAUGAUGCUGUGUUCCAUUCAUUAUGAAGGGACAGACCUGGG,1.53
